Assay results gathered from unrelated publications.
Protocols differ between the studies behind these lines. ± marks the error that the study gave.

For `CC[C@H](C)[C@H](NC(=O)[C@H](C)NC(=O)[C@H](CC(C)C)NC(=O)[C@H](Cc1ccc(O)c(I)c1)NC(C)=O)C(=O)NCCCCCC(=O)N1CCC[C@H]1C(=O)N[C@@H](C)C(=O)N[C@@H](CC(=O)O)C(=O)N[C@@H](CCC(=O)O)C(=O)N[C@H](C(=O)N[C@@H](CC(=O)O)C(=O)NCC(=O)N[C@@H](CCCNC(=N)N)C(=O)N[C@@H](CCCNC(=N)N)C(=O)N[C@@H](CCCNC(=N)N)C(=O)N[C@@H](CCCN)C(=O)N[C@@H](CCCNC(=N)N)C(=O)N[C@@H](CCCNC(=N)N)C(=O)N[C@@H](CCCCN)C(=O)N[C@@H](CCCCN)C(=O)N[C@@H](CCCNC(=N)N)C(=O)N[C@@H](CCCCNC(=O)CN1CCN(CC(=O)O)CCN(CC(=O)O)CCN(CC(=O)O)CC1)C(N)=O)C(C)C` [iodine-125 labelled], the tumour uptake was 2.4 ± 0.3 %ID/g (BALB/c mouse, orthotopic 4T1 tumours, tumour; dose not given, 1 h).
For `C=CC(=O)N1C[C@H](C)N(c2nc(OC[C@@]34CCCN3C[C@H](F)C4)nc3c(F)c(-c4ccc(F)c5sc(N)c(C#N)c45)c(C(F)(F)F)cc23)C[C@H]1C`, “tumour volume regression” read 90% (mouse, MIA PaCa-2 xenograft; oral, 10 mg/kg daily, 28 days).
`COc1ccc2c(c1)CCn1c[n+]3c(c1-2)-c1ccc(OC)cc1CC3`: tumour weight “decreased” (tumour growth; NSG mouse, MDA-MB-231 orthotopic xenograft; intraperitoneal, 6 mg/kg, 5 days/week; baseline: vehicle).
For `CC=C1C(OC2OC(CO)C(O)C(O)C2O)OC=C(C(=O)OC)C1CC(=O)OCC1OC(OCCc2ccc(O)cc2)C(O)C(O)C1O` (stereo not shown), “tumour to body weight ratio decrease” read 30.8% (BALB/c mouse, orthotopic colon 26 tumour; oral, 109.2 mg/kg daily, 10 days; baseline: untreated tumour group).
`C#CCCCC(F)/C=C/C(=O)NC1(c2ccc(-c3nc4ccn5c(=O)[nH]nc5c4cc3-c3ccccc3)cc2)CCC1` (stereo not shown) — result for “tumour growth suppression”: 26% (mouse, MDA-MB-468 xenograft; oral, 200 mg/kg twice weekly; baseline: DMSO vehicle).
`Cc1cc(C)c(S(=O)(=O)N(CC(=O)O)c2ccc(Nc3ccnc(N4CCCC4)n3)cc2)c(C)c1`: tumour growth “decreased” (BALB/c nude mouse HCT-116 xenograft; intraperitoneal, 50 and 100 mg/kg/day, 21 d).
For `CN1Cc2cnc3ccc(-c4ccc(N)nc4)nc3c2N(c2cccc(C(F)(F)F)c2)C1=O`, “tumour growth inhibition” read 59.7% (PC-3 xenograft, mouse; oral, 30 mg/kg once daily, 14 days).
`COc1cccc2c1C(=O)c1c(O)c3c(c(O)c1C2=O)CC(O)(C(=O)CO)CC3OC1CC(NC(=O)C[C@H](N)C(=O)O)C(O)C(C)O1` (stereo partly shown) gave a tumour volume of roughly 5 fold (mouse, HepG2 xenograft; intravenous, 5 mg/kg twice weekly, end of study; baseline: initial tumour volume).
For `C[C@H](NC(=O)CNC(=O)[C@H](CCC(=O)O)NC(=O)[C@H](CCC(=O)O)NC(=O)[C@H](CC(=O)O)NC(=O)[C@@H]1CCCN1C(=O)[C@H](Cc1ccccc1)NC(=O)[C@H](CS)NC(=O)[C@H](Cc1ccc(O)cc1)NC(=O)CCCNC(=O)CNC(=O)CNC(=O)[C@@H](C)NC(=O)CN)C(=O)N[C@@H](CS)C(=O)N[C@@H](Cc1ccc(O)cc1)C(N)=O` [technetium-99m labelled], “tumour to non-tumour ratio” read 4.07 (SPECT; BALB/c nude mouse, SKBR3 tumour; intravenous, 37 MBq, 180 min).
`CCc1cnc(NC(=O)c2cc(S(=O)(=O)N3CCOCC3)ccc2N(C)C2CCCC2)s1` has a tumour volume of 190 ± 37 mm³ (mouse, H1975-OR xenograft; intraperitoneal, 10 mg/kg every other day, day 55).
`Clc1ccc(NN=C(c2ccccc2)c2ccccn2)nc1`: “tumour growth rate” “decreased” (nude mouse, A549 xenograft; oral gavage, 55 mg/kg, Cremophor EL vehicle; baseline: vehicle).
`CCCCCCCCCCCCCC(=O)N1CCC[C@H]1C(=O)N[C@@H](CO)C(=O)N[C@@H](CCC(N)=O)C(=O)N[C@@H](CO)C(=O)N[C@@H](CCCCNC(=O)c1ccc(Br)cc1)C(=O)N[C@@H](CO)C(=O)N[C@@H](CCCCNC(=O)c1ccc(Br)cc1)C(=O)N[C@@H](C)C(=O)O` gave a tumour regression of 2.7 fold (female SCID mouse, MDA-MB-231 fat pad xenograft; intratumoral, dose not given, alternate days for one month; baseline: DMSO-PBS vehicle).
Under “tumour cell proliferation”, `COc1ccc(CCNc2ncnc3sc(C)cc23)cc1OC` is recorded as “decreased” (refers to: Ki67; mouse LNCaP xenograft; intraperitoneal, 2.6 mg/kg daily).
For `C[C@@H](O)[C@H](NC(=O)[C@@H]1CSSC[C@H](NC(=O)[C@@H](Cc2ccccc2)NC(=O)CCC(C(=O)O)N2CCN(CC(=O)O)CCN(CC(=O)O)CC2)C(=O)N[C@@H](Cc2ccc(O)cc2)C(=O)N[C@H](Cc2c[nH]c3ccccc23)C(=O)N[C@@H](CCCCN)C(=O)N[C@@H]([C@@H](C)O)C(=O)N1)C(=O)O` (stereo partly shown) [copper-64 labelled], “tumour uptake decrease” read 90% (HCT116-SSTR2, NCr nude mouse female xenograft; dose not given, 4 h, 64Cu-labelled, with: Y3-TATE 50 µg, 30 min prior).
With `CCN(C(=O)c1cc(F)ccc1Oc1nncnc1N1CCC2(C1)CN([C@H](CCCN(C)CCOC)C(C)C)C2)C(C)C` the tumour regression was 70% (mouse, subcutaneous MOLM-14 AML xenograft; oral, 30 mg/kg daily, 5 weeks).
`C#Cc1cccc(Nc2ncnc3cc(OC)c(OCCCN4CCOCC4)cc23)c1` — result for tumour burden: “inhibited” (nude mouse, A-431 xenograft; oral gavage, 40 mg/kg/day).
With `NC(=O)c1cccnc1.O.O=c1[nH]cc(F)c(=O)[nH]1.O=c1[nH]cc(F)c(=O)[nH]1.O=c1[nH]cc(F)c(=O)[nH]1` the tumour weight was 0.62 ± 0.15 g (nude mouse HCT-116 xenograft; 0.006 mmol/kg/day, 21 days).
`Cc1cc(O)cc(O)c1C(=O)c1c2c3c(c(O)cc(C)c3oc1=O)C(=O)c1c(O)cc(O)cc1-2` has a tumour volume of 817 ± 84 mm³ (Bel-7402 xenograft, mouse; intraperitoneal, 14 mg/kg daily, day 21).
`CS(=O)(=O)c1sc(NC(=O)Nc2ccc(Cl)cc2)c2c1C=CCC2` has a tumour volume of 225 ± 53.6 mm³ (MIA PaCa-2 xenograft, mouse; intraperitoneal, 50 mg/kg daily, 28 days).

Excerpt of the above:
`Clc1ccc(NN=C(c2ccccc2)c2ccccn2)nc1`: “tumour growth rate” “decreased” (nude mouse, A549 xenograft; oral gavage, 55 mg/kg, Cremophor EL vehicle; baseline: vehicle).
`CCCCCCCCCCCCCC(=O)N1CCC[C@H]1C(=O)N[C@@H](CO)C(=O)N[C@@H](CCC(N)=O)C(=O)N[C@@H](CO)C(=O)N[C@@H](CCCCNC(=O)c1ccc(Br)cc1)C(=O)N[C@@H](CO)C(=O)N[C@@H](CCCCNC(=O)c1ccc(Br)cc1)C(=O)N[C@@H](C)C(=O)O` gave a tumour regression of 2.7 fold (female SCID mouse, MDA-MB-231 fat pad xenograft; intratumoral, dose not given, alternate days for one month; baseline: DMSO-PBS vehicle).
Under “tumour cell proliferation”, `COc1ccc(CCNc2ncnc3sc(C)cc23)cc1OC` is recorded as “decreased” (refers to: Ki67; mouse LNCaP xenograft; intraperitoneal, 2.6 mg/kg daily).
